Assay results of several laboratories.
Compare with care: the assays were run in different laboratories.
Target: Ephrin type-A receptor 2 (EPHA2, Homo sapiens, UniProt P29317)
Sequence of UniProt P29317 (whole entry, looked up): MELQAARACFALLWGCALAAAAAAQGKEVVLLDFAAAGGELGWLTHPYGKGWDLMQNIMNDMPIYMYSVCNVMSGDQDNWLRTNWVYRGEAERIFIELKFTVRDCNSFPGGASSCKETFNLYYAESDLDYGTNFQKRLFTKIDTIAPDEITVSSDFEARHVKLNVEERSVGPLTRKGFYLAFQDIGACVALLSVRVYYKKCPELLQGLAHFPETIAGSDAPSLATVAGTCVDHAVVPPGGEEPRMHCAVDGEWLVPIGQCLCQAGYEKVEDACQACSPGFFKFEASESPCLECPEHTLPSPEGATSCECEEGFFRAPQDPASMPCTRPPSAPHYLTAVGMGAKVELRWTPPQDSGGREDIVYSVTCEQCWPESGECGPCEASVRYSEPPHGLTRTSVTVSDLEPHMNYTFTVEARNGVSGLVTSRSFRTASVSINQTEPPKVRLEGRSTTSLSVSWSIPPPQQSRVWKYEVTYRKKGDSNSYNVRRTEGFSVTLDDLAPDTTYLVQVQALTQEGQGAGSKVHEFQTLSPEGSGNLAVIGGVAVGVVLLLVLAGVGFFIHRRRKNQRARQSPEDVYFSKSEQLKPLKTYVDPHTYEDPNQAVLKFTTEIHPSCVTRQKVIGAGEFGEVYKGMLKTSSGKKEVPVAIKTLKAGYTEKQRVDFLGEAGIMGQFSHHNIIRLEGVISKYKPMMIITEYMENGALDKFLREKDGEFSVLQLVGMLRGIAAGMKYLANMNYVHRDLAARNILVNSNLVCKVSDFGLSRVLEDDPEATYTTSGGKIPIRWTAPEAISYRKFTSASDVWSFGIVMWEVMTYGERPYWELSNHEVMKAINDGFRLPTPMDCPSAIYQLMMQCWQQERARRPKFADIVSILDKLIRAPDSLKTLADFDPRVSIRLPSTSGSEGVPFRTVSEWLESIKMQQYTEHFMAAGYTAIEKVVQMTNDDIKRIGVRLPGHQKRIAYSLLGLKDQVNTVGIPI

Nc1ccc(/C=C/C(=O)N2CCc3c(oc4c(-c5ccc(F)cc5)cc(-c5ccc(C(=O)N6CCC(F)(F)CC6)cn5)cc34)C2)cn1 — remaining binding (binding, competition with immobilised ligand; 1 µM): 100%
N[C@H](C(=O)N1CCCC1)C1CCN(c2nccc3c(-c4ncc(Cl)cc4Cl)cccc23)CC1 — inhibition (kinase activity, inhibitor; 10 µM, added: ATP 1 mM): 11.7%
O=C1NC(=O)c2c1c1cc(F)c[n+]3c1c1c2c2cc(O)ccc2[n]1[Ru-4]312([N]=C=S)[S+]3CC[S+]1CC[S+]2CC3 (centres unmarked) — remaining activity (enzyme activity; 100 nM, human enzyme, added: 10 µM ATP; reference: untreated): 99%
C[C@H](NCc1ccc(-c2ccc(C(F)(F)F)cc2)cc1)C(N)=O — inhibition (cell-free assay, competition with immobilised ligand; 1 µM): 15%
CC(C)[C@H]1NC(=O)C[C@H]2/C=C/CCSSC[C@@H](NC1=O)C(=O)N[C@H](Cc1cccc3ccccc13)C(=O)NCC(=O)O2 — inhibition (enzyme activity, inhibitor; 10 µM): -1.1%
CCOC(=O)[C@@H]1Cc2c(cc([N+](=O)[O-])cc2[N+](=O)[O-])[C@H](O)[C@]12C(=O)Nc1ccc(Br)cc12 — remaining binding (binding, competition with immobilised ligand; 0.1 µM): 100%
CCn1nc(Cl)c2c1-c1cnc(N)c(c1)O[C@H](C)c1cc(F)ccc1-c1nn(C)cc1C2 — selectivity ratio (kinase activity, inhibitor; reference: IC50 EPHA2 over IC50 ALK): 185 fold
CS(C)(=O)=Nc1ccc(-c2ccc(-c3nc4cc(O[C@@H]5CO[C@H]6[C@@H]5OC[C@H]6O)[nH]c4cc3F)cc2)cc1 — inhibition (enzyme activity, inhibitor; 10 µM): 8%

Repeated from above:
CCOC(=O)[C@@H]1Cc2c(cc([N+](=O)[O-])cc2[N+](=O)[O-])[C@H](O)[C@]12C(=O)Nc1ccc(Br)cc12 — remaining binding (binding, competition with immobilised ligand; 0.1 µM): 100%
